Assay results pooled from the literature.
Compare with care: the assays were run in different laboratories. ± marks the error that the study gave.

C=Cc1cc(O)cc2nc(-c3ccc(O)c([76Br])c3)oc12  tissue uptake (female C57BL/6 mouse, kidney; 1 h, high dose): 1.58 ± 0.78 %ID/g
CN[C@](C)(C[18F])C(=O)O  tissue uptake (SCID mouse SK-OV-3 xenograft, tumour; 30 min post injection): 14 ± 3.1 %ID/g
N=C(N)NCCC[C@@H]1NC(=O)[C@H](CCCCNC(=O)CC[C@H](NC(=O)CCOCCOCCOCCOCCNC(=O)CC[C@H](NC(=O)CN2CCN(CC(=O)O)CCN(CC(=O)O)CCN(CC(=O)O)CC2)C(=O)NCCOCCOCCOCCOCCC(=O)N[C@@H](CCC(=O)NCCCC[C@@H]2NC(=O)[C@@H](Cc3ccccc3)NC(=O)[C@H](CC(=O)O)NC(=O)CNC(=O)[C@H](CCCNC(=N)N)NC2=O)C(=O)NCCCC[C@@H]2NC(=O)[C@@H](Cc3ccccc3)NC(=O)[C@H](CC(=O)O)NC(=O)CNC(=O)[C@H](CCCNC(=N)N)NC2=O)C(=O)NCCCC[C@@H]2NC(=O)[C@@H](Cc3ccccc3)NC(=O)[C@H](CC(=O)O)NC(=O)CNC(=O)[C@H](CCCNC(=N)N)NC2=O)NC(=O)[C@@H](Cc2ccccc2)NC(=O)[C@H](CC(=O)O)NC(=O)CNC1=O [indium-111 labelled]  tissue uptake (female athymic nude mice, kidney; intravenous, 3 µCi, 24 h, U-87 MG glioma xenograft): 4.38 ± 1.1 %ID/g
CN(C)CC1CCCCC1(O)c1cccc(O)c1 (centres unmarked)  Papp A to B (Caco-2 TC7; 100 µM, 3 h, pH 6.8 apical, 7.4 basolateral): 6.7 ± 0.4 ×10⁻⁶ cm/s
CCCC[C@H](NC(=O)CN1CCC(NC(=O)CN2CCC(NC(=O)CN3CCN(CC(=O)O)CCN(CC(=O)O)CCN(CC(=O)O)CC3)CC2)CC1)C(=O)N[C@H]1CC(=O)NCCCC[C@@H](C(N)=O)NC(=O)[C@H](Cc2c[nH]c3ccccc23)NC(=O)[C@H](CCCNC(=N)N)NC(=O)[C@@H](Cc2ccccc2)NC(=O)[C@H](Cc2c[nH]cn2)NC1=O [gallium-68 labelled]  tissue uptake (C57BL/6J mice male B16-F10 tumour, muscle; 1 h post injection, unblocked): 0.1 %ID/g
CCNc1cc2[o+]c3cc(NCC)c(C)cc3c(-c3ccccc3C(=O)OCCOCC[18F])c2cc1C  tissue uptake (rat, kidney; 120 min): 8.21 ± 1.22 %ID/g
COc1cc2ncnc(Oc3cccc(N[11C](=O)Nc4cc(C(C)(C)C(F)(F)F)on4)c3)c2cc1OC  tissue uptake (Balb/c nude mouse, female, A375 melanoma xenograft, kidney; 6.6 MBq, 30 min): 6.82 ± 0.27 %ID/g
CC(C)C[C@@H](NC(=O)[C@@H](CCCNC(=N)N)NC(=O)[C@@H](Cc1c[nH]cn1)NC(=O)[C@@H](Cc1c[nH]c2ccccc12)NC(=O)[C@@H](Cc1c[nH]cn1)NC(=O)[C@@H](Cc1ccccc1)NC(=O)[C@H](NC(=O)[C@@H](Cc1ccc(O)cc1)NC(=O)CNC(=O)CNC(=O)CCOCCOCCOCCNC(=O)CN1CCN(CC(=O)O)CCN(CC(=O)O)CC1)[C@H](C)O)C(=O)N[C@H](CC(N)=O)C(=O)N1CCC[C@@H]1C(=O)O [gallium-68 labelled]  tissue uptake (γ-counting; male C57BL/6 mice, kidney; intravenous, 1.85 MBq, 60 min): 42.3 ± 3.52 %ID/g
COc1cc(C(=O)NCCOCCOCCOCCNC(=O)c2ccc([18F])nc2)ccc1NC(=O)C1NC(CC(C)(C)C)C(C#N)(c2ccc(Cl)cc2F)C1c1cccc(Cl)c1F (centres unmarked)  tracer uptake (HepG2 tumour model; host not given, blood; 30 min, tumour-bearing): 3.9 %ID/g
O=C(O)CC[C@H](NC(=O)O[C@@H](CCCCNC(=O)c1ccc([18F])cc1)C(=O)O)C(=O)O  tissue uptake (mouse, PC-3 PIP/flu xenografts, bladder; 90 min): 2.11 ± 1.21 %ID/g
N=C(N)NCCC[C@@H]1NC(=O)[C@H](CCCCNC(=O)CCOCCOCCOCCOCCNC(=O)CN2CCN(CC(=O)O)CCN(CC(=O)O)CCN(CC(=O)O)CC2)NC(=O)[C@@H](Cc2ccccc2)NC(=O)[C@H](CC(=O)O)NC(=O)CNC1=O [indium-111 labelled]  tissue uptake (female athymic nude mice, blood; intravenous, 3 µCi, 24 h, U-87 MG glioma xenograft): 0.06 %ID/g
N=C(N)NCc1ccc(C(=O)NCCCC[C@H](NC(=O)CCCCCCC(=O)NCCCC[C@H](NC(=O)N[C@@H](CCC(=O)O)C(=O)O)C(=O)O)C(=O)O)cc1[211At]  tissue uptake (SCID mouse, PC-3 xenografts, blood; 2 h): 0.35 ± 0.03 %ID/g
O=C(c1ccc(F)cc1)C1CCN(C2Cc3c(cccc3OCC[18F])CC2O)CC1 (single isomer, unassigned; (-))  tissue uptake (Sprague-Dawley rat, male, cortex; 5 min post-injection): 0.777 %ID/g
N=C(N)NCc1ccc(C(=O)NCCCC[C@H](NC(=O)N[C@@H](CCC(=O)O)C(=O)O)C(=O)O)cc1[131I]  tissue uptake (SCID mouse, PC-3 xenografts, spleen; 14 h): 0.5 ± 0.2 %ID/g
COc1cc2ccnc(Cc3ccc(O[11CH3])c(OC)c3)c2cc1OC  tissue uptake (Sprague-Dawley rats, fat; intravenous, 0.08333 h): 0.124 ± 0.02 %ID/g
N=C(N)NCc1ccc(C(=O)NCCCC[C@H](NC(=O)CCCCCCC(=O)NCCCC[C@H](NC(=O)N[C@@H](CCC(=O)O)C(=O)O)C(=O)O)C(=O)O)cc1[131I]  tissue uptake (SCID mouse, PC-3 xenografts, liver; 2 h): 3.48 ± 2.35 %ID/g
C[S]1CC[S]2CC[P](CO)(CO)[99Tc+]12.[C-]#[O+].[C-]#[O+].[C-]#[O+]  tissue uptake (CF-1 mice, female, urine; intravenous, 24 h): 68.1 %ID
